# Assay results pooled from the literature.
# Numbers after ± are the reported error.
# Organism: SARS-CoV-2
Structure (SMILES),test,test system,conditions,EC50
C[C@@H](NCCCc1cccc(C(F)(F)F)c1)c1cccc2ccccc12,"viral replication, plaque",Vero C1008,16 h,2930 ± 380 nM
N#C[C@@]1(c2ccc3c(N)ncnn23)O[C@H](CO)[C@@H](O)[C@H]1O,viral replication,,1 h,3370 nM
O=S(=O)(c1cc(Cl)cc(Cl)c1)N1CCCC2=CC3CC(CN4CCCCC34)C21 (stereo not drawn),pseudovirus entry,,pseudovirus,49000 nM
Cc1ccc(N2CCN(C)CC2)cc1C(=O)NC1(c2ccc3c4c(cccc24)CC3)CC1,viral replication,"Vero C1008, wild type",,400 nM
C[C@@H]1O[C@@H](n2c3ccccc3c3c4c(c5c6ccccc6[nH]c5c32)CNC4=O)C[C@@H](N)[C@H]1O,"viral replication, nucleocapsid staining","Calu-3, Delta B.1.617.2",,600 nM
O=C(CN1CCCC2=CC3CC(CN4CCCCC34)C21)Nc1cc(Cl)cc(OC(F)(F)F)c1 (stereo not drawn),pseudovirus entry,,pseudovirus,14700 nM
N#Cc1ccccc1C[C@@H](N)C(=O)N[C@H](Cc1ccc(Cl)cc1Cl)C(=O)N[C@H](CC(=O)O)Cc1ccc(F)cc1,viral replication,USA-WA1/2020,24 h,> 10000 nM
Cc1ccc(CNC(=O)c2cc(F)c(Br)cc2Cl)cc1C(=O)N[C@H](C)c1cccc2ccccc12,viral replication,"Vero C1008, WK-521 ancestral Wuhan",,> 100000 nM
CNC(=O)C[C@H](Cc1ccc(F)cc1)NC(=O)[C@@H](Cc1ccc(Cl)cc1Cl)NC(=O)[C@H](N)Cc1ccccc1[N+](=O)[O-],viral replication,USA-WA1/2020,24 h,4000 nM
CNCc1ccc(C)c(C(=O)N[C@H](C)c2cccc3ccccc23)c1,viral replication,"Vero C1008, WK-521 ancestral Wuhan",,23600 ± 400 nM
C#CCCCNCCNc1ccnc2cc(Cl)ccc12,viral replication,Caco-2,30 h,5900 ± 3200 nM
CNC(=O)C[C@H](Cc1ccc(F)cc1)NC(=O)[C@@H](Cc1ccc(F)cc1F)NC(=O)[C@H](N)Cc1ccccc1C#N,viral replication,USA-WA1/2020,24 h,2000 nM
Cc1ccc(OCCN(C)C)cc1C(=O)N[C@H](C)c1cc(-c2cnn(C)c2)cc(-c2ccn(C)n2)c1,viral replication,"Caco-2, icSARS-CoV-2-nLuc reporter",,1150 nM
CCn1ccc(-c2cc(-c3cnn(C)c3)cc([C@@H](C)NC(=O)c3cc(OCCN(C)C)ccc3C)c2)n1,"viral replication, plaque",recombinant Y268H,,4800 nM
O=S(=O)(c1ccc(Cl)cc1)N1CCCC2=CC3CC(CN4CCCCC34)C21 (stereo not drawn),pseudovirus entry,,pseudovirus,> 267000 nM
Cc1cc(C(=O)NCc2ccc(C)c(C(=O)N[C@H](C)c3cccc4ccccc34)c2)ccc1Br,viral replication,"Vero C1008, WK-521 ancestral Wuhan",,57100 ± 6700 nM
C[C@](C(=O)NC1CCOCC1)(c1cncnc1)N(C(=O)[C@H](F)Cl)c1ccc(OC(F)(F)Cl)cc1,viral replication,Vero,,71 nM
COc1cccc2[nH]c(C(=O)N[C@@H](CC(C)C)C(=O)N[C@@H](C[C@@H]3CCNC3=O)C(=O)c3nc4ccccc4s3)cc12,viral replication,"VeroE6, WK-521 (ancestral Wuhan)",,2600 ± 70 nM
Cc1ccc(N)cc1CN(C)[C@H](C)c1cccc2ccccc12,viral replication,"Vero E6, USA-WA1/2020",24 h,25200 nM
CCOC(=O)[C@H](C(C)C)n1[se]c2ccccc2c1=O,"viral replication, RT-qPCR",Vero,48 h,24000 nM
C=C1CCC2[C@](C)(CO)[C@H](O)CC[C@@]2(C)[C@@H]1/C=C/C1=CCOC1=O (stereo partly drawn),plaque reduction,"Vero E6, B.3",72 h,> 10000 nM
Cc1ccc(CNC(=O)c2cc(F)cc(Br)c2)cc1C(=O)N[C@H](C)c1cccc2ccccc12,viral replication,"Vero C1008, WK-521 ancestral Wuhan",,65100 ± 2600 nM
CC(C)(C)[C@H](NC(=O)C(F)(F)F)C(=O)N1C[C@H]2[C@@H]([C@H]1C(=O)N[C@H](C#N)C[C@@H]1CCNC1=O)C2(C)C,dsRNA staining,"Caco-2, Omicron XBB.1.5",,500 nM
Cc1ccc(CNC(=O)c2ccc(Br)c(F)c2)cc1C(=O)N[C@H](C)c1cccc2ccccc12,viral replication,"Vero C1008, WK-521 ancestral Wuhan",,53100 ± 4200 nM
N#Cc1ccccc1C[C@@H](N)C(=O)N[C@H](Cc1ccc(Cl)cc1Cl)C(=O)N[C@H](CC(=O)NC(N)=O)Cc1ccc(F)cc1,viral replication,USA-WA1/2020,24 h,> 10000 nM
O=C(CNc1ccc(OC(F)(F)F)cc1)N1CCCC2=CC3CC(CN4CCCCC34)C21 (stereo not drawn),pseudovirus entry,,pseudovirus,19300 nM
CCOC(=O)c1c(CS(=O)(=O)c2ccc(Cl)cc2)n(C)c2cc(Br)c(O)c(CN(C)C)c12,,"Vero C1008, MEX-BC2/2020",96 h,> 25000 nM
CNC(=O)C[C@H](Cc1ccc(F)cc1)NC(=O)[C@@H](Cc1ccc(Cl)cc1Cl)NC(=O)[C@@H](Cc1ccccc1C#N)NC(C)=O,viral replication,USA-WA1/2020,24 h,> 10000 nM
O=C1C(O)=C(Nc2cccc(C(F)(F)F)c2)C(=O)c2ccccc21,viral replication,Calu-3,48 h,1500 ± 200 nM
CNC(=O)C[C@H](Cc1ccncc1)NC(=O)[C@@H](Cc1cccc(Br)c1)NC(=O)[C@@H](N)Cc1cccc(F)c1,viral replication,USA-WA1/2020,24 h,> 10000 nM
O=C(CN1CCCC2=CC3CC(CN4CCCCC34)C21)Nc1cc(Br)ccc1Br (stereo not drawn),pseudovirus entry,,pseudovirus,55300 nM
O=c1cc(-c2ccc(O)cc2)oc2c([C@@H]3OC[C@H](O)[C@H](O)[C@H]3O)c(O)c([C@@H]3O[C@H](CO)[C@@H](O)[C@H](O)[C@H]3O)c(O)c12,"viral replication, qRT-PCR","Vero E6 cells, WIV04",24 h,11800 ± 3230 nM
Cc1ccc(N)cc1C(=O)N[C@H](C)c1cccc2ccccc12,viral replication,USA-WA1/2020,24 h,20000 nM
Cc1ccc(OCCN(C)C)cc1C(=O)N[C@H](C)c1cc(-c2cnn(C)c2)cc(-c2cnn(CC(F)(F)F)c2)c1,viral replication,"Caco-2, icSARS-CoV-2-nLuc reporter",,500 nM
CC(=O)OC1(C)CC(C=C(C)CCC=C(C)C)OC2(C=C(CO)C3CC(=O)C(C)=CC3O2)C1 (stereo not drawn),"viral replication, measured: nucleocapsid protein","Calu-3, Omicron BA.2",,700 nM
Oc1c(Br)cc(Br)c2cccnc12,"viral replication, immunofluorescence","Vero E6, delta B.1.617.2",24 h,2700 nM
CO/C1=C\C(C)=C\[C@@H](C)[C@@H](O)[C@@H](C)C/C(C)=C/C=C/[C@H](OC)[C@@H]([C@@H](C)[C@@H](O)[C@H](C)C(=O)/C=C/[C@H](C)[C@H](O)C(C)C)OC1=O,"viral replication, measured: nucleocapsid protein","Calu-3, Omicron BA.2",,4.6 nM
O=CN(CCCc1cn(-c2ccc(CN3CCOCC3)cc2)nn1)CCNc1ccnc2cc(Cl)ccc12,viral replication,"Vero 76, MUC-IMB-1/2020",30 h,1800 ± 2400 nM
CN(C)c1ccc(N(Cc2cc(Cl)cs2)C(=O)Cc2cncc3cccc(O)c23)cc1,dsRNA staining,"Caco-2, Omicron BA.5",,43 nM
Cc1ccc(OCCN(C)C)cc1C(=O)N[C@H](C)c1cc(-c2cnn(C)c2)cc(-c2cnn(CCN3CCOCC3)c2)c1,viral replication,"Caco-2, icSARS-CoV-2-nLuc reporter",,590 nM
O=C(c1cncc2cc[nH]c12)N1CCC(=C2c3ccccc3CS(=O)(=O)c3ccccc32)CC1,viral replication,WA1,,10 nM
[2H]C1([2H])C[C@@H](C[C@@H](C#N)NC(=O)[C@@H]2[C@@H]3[C@H](CN2C(=O)[C@@H](NC(=O)C(F)(F)F)C(C)(C)C)C3(C)C)C(=O)N1,viral replication,Canada/VIDO 01/2020,together with: efflux inhibitor CP-100356,60 nM
N#Cc1ccccc1CC(N)C(=O)NC(Cc1ccc(Cl)cc1Cl)C(=O)NC(CC(=O)NCCCCN1CCCC1)Cc1ccc(F)cc1 (stereo not drawn),viral replication,USA-WA1/2020,24 h,700 nM
Cc1cc(C)n(-c2nc(-c3ccccc3)cc(=O)n2CC(=O)Nc2cccc([N+](=O)[O-])c2)n1,"viral RNA, qPCR",wild type,24 h,1950 nM
CN(C)c1ccc(N(Cc2cc(Cl)cs2)C(=O)Cc2cncc3ccccc23)cc1,"viral replication, dsRNA staining","Calu-3, Omicron BQ.1.1",,200 nM
Cc1ccc(N2CC3CC(C2)N3)cc1C(=O)NC1(c2ccc3c4c(cccc24)C(=O)N3C)CC1,viral replication,"Vero C1008, wild type",,40 nM
O=C(Nc1ccc([N+](=O)[O-])c(Cl)c1)c1cc(Cl)ccc1O,viral replication,,48 h,1740 nM
CC(C)C[C@H](NC(=O)c1cc2c(F)ccc(F)c2[nH]1)C(=O)N[C@@H](C[C@@H]1CCNC1=O)C(=O)c1nc2c(F)cccc2s1,"viral replication, RT-qPCR","VeroE6, WK-521",,400 ± 90 nM
Cc1cccc(F)c1NC(=O)CN1CCCC2=CC3CC(CN4CCCCC34)C21 (stereo not drawn),pseudovirus entry,,pseudovirus,> 267000 nM
O=C(CCCCCCc1ccc(O)c(O)c1)c1c(O)cccc1O,MTT,"Vero E6/TMPRSS2, WK-521 ancestral",,2900 nM
C=CCn1c(C)cc(C(=O)COn2nnc3ccc(S(=O)(=O)N(C)C)cc32)c1C,"viral replication, cell-based",,,inactive
